{"data": "Experimental data gathered from unrelated publications", "organism": "HIV-1", "note": "Lines come from different studies, so protocols differ. ± gives the spread as reported."}
{"Compound": "CC(C)C[C@H](NC(=O)[C@H](CCCCN)NC(=O)[C@H](CC(C)C)NC(=O)[C@]1(C)CCCC=CCCC[C@](C)(N)C(=O)N[C@@H](C)C(=O)N[C@@H](Cc2ccc(O)cc2)C(=O)N[C@@H](Cc2ccccc2)C(=O)N1)C(=O)N[C@@H](C)C(=O)NCC(=O)N[C@@H](CCCNC(=N)N)C(=O)N[C@@H](Cc1c[nH]c2ccccc12)C(N)=O", "EC50 [µM]": 4}
{"Compound": "Cc1cc(/C=C/C#N)cc(C)c1Oc1nc(NC2CCN(Cc3ccc(S(C)(=O)=O)cc3)CC2)nc2ncccc12", "test": "viral replication", "system": "TZM-bl, GH9 K101P/K103N/V108I", "EC50 [µM]": "0.0111 ± 0.00387"}
{"Compound": "O=C1c2c(ccc(O)c2O)CN1Cc1cccc(Cl)c1F", "test": "viral replication", "system": "wild type, VSV-G pseudotyped", "EC50 [µM]": "0.5 ± 0.04"}
{"Compound": "O=C(NCc1ccc(F)cc1F)c1cc2cccnc2n(O)c1=O", "test": "viral replication, lentiviral vector", "system": "wild-type integrase", "conditions": "5% FBS", "EC50 [µM]": "0.0051 ± 0.0019"}
{"Compound": "O=C1c2ccc(O)c(O)c2C(=O)N1Cc1ccc(F)c(Cl)c1", "test": "viral replication", "system": "wild type, VSV-G pseudotyped", "EC50 [µM]": "1.7 ± 0.5"}
{"Compound": "O=C(NCc1ccc(F)cc1F)c1c(O)c2cccnc2n(O)c1=O", "test": "viral replication, lentiviral vector", "system": "wild-type integrase", "conditions": "5% FBS", "EC50 [µM]": "0.0062 ± 0.0029"}
{"Compound": "O=C1c2c(ccc(O)c2O)CN1Cc1ccc(F)c(Cl)c1", "test": "viral replication", "system": "wild type, VSV-G pseudotyped", "EC50 [µM]": "0.45 ± 0.11"}
{"Compound": "CC(C)C[C@@H]1NC(=O)[C@H](CCCCN)NC(=O)[C@H](CC(C)C)NC(=O)[C@@](C)(NC(=O)[C@H](Cc2ccccc2)NC(=O)[C@H](Cc2ccc(O)cc2)NC(=O)[C@H](C)NC(=O)[C@@H](N)[C@@H](C)O)CCCC=CCCC[C@@](C)(C(=O)NCC(=O)N[C@@H](CCCNC(=N)N)C(=O)N[C@@H](Cc2c[nH]c3ccccc23)C(N)=O)NC1=O", "EC50 [µM]": 20}
{"Compound": "CCCCCCCCCC(=O)OCC1OC(n2cc(C)c(=O)[nH]c2=O)CC1N(C)C (stereo not shown)", "test": "viral cytopathic effect, MTT", "system": "MT-4, IIIB", "EC50 [µM]": "> 0.15"}
{"Compound": "Nc1c(C(=O)NCc2ccc(F)cc2F)c(=O)n(O)c2ncccc12", "test": "viral replication, single-round infectivity", "system": "integrase H51Y/R263K", "EC50 [µM]": "0.0032 ± 0.0009"}
{"note": "Some of these lines once more:"}
{"Compound": "Cc1cc(/C=C/C#N)cc(C)c1Oc1nc(NC2CCN(Cc3ccc(S(C)(=O)=O)cc3)CC2)nc2ncccc12", "test": "viral replication", "system": "TZM-bl, GH9 K101P/K103N/V108I", "EC50 [µM]": "0.0111 ± 0.00387"}
